Experimental data pooled from the literature.
Numbered parts are unrelated; each lists some results of a single study. “And” joins repeats or separate records; there may be more than shown.
Sequence of UniProt P07949 (whole entry, unmodified, looked up): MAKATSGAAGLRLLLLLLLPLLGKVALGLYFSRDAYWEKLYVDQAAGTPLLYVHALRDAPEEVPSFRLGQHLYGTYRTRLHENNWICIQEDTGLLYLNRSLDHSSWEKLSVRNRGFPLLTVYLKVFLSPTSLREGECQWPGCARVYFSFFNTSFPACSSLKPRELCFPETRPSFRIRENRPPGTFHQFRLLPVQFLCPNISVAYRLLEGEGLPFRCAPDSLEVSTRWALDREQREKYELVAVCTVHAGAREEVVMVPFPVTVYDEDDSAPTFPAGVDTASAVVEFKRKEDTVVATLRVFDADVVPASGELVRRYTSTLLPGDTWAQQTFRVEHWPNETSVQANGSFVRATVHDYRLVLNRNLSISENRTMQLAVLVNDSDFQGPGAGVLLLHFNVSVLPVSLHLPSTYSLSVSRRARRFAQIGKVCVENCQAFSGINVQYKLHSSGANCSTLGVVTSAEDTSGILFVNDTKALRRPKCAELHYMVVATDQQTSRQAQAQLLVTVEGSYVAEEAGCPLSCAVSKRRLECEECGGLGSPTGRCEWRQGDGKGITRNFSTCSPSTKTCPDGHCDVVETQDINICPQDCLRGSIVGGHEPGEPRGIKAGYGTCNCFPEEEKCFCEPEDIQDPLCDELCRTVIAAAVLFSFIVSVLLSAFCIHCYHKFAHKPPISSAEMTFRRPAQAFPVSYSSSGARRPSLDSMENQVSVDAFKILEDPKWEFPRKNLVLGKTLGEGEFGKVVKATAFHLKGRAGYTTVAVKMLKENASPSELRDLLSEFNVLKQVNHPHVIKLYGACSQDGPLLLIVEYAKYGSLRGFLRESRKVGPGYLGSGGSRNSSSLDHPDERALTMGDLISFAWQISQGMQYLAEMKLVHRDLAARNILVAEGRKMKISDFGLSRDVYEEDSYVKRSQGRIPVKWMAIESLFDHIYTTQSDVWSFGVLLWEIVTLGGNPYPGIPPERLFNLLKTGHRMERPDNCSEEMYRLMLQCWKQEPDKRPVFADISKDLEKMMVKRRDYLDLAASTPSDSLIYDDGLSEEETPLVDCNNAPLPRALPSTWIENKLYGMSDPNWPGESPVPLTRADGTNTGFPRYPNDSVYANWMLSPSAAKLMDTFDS
Sequence of UniProt P35626 (whole entry, looked up): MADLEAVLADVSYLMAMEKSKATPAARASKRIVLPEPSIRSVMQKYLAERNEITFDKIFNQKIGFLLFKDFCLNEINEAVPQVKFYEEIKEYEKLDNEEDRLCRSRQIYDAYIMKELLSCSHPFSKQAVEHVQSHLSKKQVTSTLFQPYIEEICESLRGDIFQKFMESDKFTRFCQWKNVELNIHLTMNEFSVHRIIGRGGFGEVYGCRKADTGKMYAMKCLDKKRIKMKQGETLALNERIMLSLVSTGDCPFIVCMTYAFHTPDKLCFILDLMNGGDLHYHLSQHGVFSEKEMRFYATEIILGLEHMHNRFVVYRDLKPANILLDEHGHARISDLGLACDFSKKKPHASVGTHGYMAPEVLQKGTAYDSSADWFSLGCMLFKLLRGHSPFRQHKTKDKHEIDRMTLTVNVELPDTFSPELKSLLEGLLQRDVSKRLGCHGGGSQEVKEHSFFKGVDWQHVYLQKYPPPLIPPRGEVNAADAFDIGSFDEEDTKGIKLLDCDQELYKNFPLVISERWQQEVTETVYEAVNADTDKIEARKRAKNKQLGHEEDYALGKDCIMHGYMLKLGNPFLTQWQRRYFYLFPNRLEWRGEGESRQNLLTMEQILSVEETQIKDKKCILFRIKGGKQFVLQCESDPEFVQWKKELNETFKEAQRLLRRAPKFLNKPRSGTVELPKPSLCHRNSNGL
Sequence of UniProt P37173 (whole entry, looked up): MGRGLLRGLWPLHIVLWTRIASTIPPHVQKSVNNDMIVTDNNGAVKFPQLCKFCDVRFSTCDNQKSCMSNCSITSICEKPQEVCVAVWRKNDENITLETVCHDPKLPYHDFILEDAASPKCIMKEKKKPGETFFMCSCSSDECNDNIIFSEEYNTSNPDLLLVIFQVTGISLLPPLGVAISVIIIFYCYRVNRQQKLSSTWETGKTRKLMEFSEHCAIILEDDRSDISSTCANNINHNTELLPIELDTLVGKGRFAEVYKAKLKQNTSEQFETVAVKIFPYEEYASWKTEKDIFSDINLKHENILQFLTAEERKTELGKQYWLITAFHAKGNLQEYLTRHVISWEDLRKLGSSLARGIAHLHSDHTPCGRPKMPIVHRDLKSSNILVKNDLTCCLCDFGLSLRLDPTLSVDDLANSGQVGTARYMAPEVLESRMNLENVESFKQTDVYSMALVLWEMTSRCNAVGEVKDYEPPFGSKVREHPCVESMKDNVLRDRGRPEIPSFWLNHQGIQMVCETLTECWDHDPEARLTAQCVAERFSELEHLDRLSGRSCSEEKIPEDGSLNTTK
Sequence of UniProt Q08881 (whole entry, looked up): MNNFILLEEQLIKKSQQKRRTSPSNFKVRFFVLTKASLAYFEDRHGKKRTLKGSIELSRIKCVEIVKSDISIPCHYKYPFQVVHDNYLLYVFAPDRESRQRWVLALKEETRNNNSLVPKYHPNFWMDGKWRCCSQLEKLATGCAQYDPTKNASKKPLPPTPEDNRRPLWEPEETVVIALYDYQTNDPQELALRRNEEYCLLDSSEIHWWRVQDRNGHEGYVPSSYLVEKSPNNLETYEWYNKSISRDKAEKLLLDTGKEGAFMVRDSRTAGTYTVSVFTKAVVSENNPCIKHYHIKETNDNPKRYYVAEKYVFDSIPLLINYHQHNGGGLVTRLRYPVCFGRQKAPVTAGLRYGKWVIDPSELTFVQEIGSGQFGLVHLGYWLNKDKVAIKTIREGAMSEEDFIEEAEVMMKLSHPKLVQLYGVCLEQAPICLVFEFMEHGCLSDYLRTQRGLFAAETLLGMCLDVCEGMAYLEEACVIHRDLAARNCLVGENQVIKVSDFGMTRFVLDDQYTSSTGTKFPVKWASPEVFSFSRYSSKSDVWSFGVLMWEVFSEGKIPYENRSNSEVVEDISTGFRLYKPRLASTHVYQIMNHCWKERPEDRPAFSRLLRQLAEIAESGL
Sequence of UniProt Q13976 (whole entry, looked up): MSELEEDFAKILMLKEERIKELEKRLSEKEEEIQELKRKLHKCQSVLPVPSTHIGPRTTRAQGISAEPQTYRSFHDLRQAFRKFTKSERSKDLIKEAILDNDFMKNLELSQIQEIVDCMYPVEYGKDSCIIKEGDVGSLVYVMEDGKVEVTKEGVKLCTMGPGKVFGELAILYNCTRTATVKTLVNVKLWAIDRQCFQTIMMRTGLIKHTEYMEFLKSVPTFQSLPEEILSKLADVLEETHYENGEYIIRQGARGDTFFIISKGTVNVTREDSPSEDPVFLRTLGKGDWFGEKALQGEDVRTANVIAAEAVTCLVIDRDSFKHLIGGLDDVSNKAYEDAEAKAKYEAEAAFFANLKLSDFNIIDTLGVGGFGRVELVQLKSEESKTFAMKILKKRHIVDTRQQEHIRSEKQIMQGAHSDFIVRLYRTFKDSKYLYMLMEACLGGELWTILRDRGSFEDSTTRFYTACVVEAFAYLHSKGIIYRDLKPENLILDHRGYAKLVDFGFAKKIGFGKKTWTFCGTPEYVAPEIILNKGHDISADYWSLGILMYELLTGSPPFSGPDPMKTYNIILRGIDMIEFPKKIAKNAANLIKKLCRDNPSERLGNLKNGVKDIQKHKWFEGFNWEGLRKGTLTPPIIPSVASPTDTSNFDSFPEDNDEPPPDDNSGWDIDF
Sequence of UniProt P45984 (whole entry, looked up): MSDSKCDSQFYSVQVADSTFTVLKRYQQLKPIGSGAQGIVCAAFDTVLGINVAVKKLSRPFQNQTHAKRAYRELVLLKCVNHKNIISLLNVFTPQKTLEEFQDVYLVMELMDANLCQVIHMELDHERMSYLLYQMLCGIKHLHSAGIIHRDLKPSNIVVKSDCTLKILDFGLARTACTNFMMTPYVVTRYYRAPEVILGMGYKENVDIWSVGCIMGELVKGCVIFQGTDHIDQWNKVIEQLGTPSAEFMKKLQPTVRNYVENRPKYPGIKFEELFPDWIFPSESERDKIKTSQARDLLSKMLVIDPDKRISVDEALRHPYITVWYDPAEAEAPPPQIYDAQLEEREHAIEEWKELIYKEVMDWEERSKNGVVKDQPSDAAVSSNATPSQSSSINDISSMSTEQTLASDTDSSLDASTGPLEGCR
Sequence of UniProt O95747 (whole entry, looked up): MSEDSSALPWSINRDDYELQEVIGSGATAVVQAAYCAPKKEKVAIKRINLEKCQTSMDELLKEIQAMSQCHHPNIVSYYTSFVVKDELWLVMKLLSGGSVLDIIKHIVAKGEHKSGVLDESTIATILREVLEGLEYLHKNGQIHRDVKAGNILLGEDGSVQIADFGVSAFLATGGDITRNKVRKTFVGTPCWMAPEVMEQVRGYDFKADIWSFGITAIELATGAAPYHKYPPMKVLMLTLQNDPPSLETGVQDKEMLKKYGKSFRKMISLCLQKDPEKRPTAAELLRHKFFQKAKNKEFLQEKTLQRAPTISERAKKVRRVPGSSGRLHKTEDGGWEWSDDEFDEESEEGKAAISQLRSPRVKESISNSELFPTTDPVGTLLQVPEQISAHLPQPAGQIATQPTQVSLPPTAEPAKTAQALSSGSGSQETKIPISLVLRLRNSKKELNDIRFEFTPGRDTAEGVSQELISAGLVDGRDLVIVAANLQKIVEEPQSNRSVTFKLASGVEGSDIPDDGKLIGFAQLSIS
Sequence of UniProt Q8IY84 (whole entry, looked up): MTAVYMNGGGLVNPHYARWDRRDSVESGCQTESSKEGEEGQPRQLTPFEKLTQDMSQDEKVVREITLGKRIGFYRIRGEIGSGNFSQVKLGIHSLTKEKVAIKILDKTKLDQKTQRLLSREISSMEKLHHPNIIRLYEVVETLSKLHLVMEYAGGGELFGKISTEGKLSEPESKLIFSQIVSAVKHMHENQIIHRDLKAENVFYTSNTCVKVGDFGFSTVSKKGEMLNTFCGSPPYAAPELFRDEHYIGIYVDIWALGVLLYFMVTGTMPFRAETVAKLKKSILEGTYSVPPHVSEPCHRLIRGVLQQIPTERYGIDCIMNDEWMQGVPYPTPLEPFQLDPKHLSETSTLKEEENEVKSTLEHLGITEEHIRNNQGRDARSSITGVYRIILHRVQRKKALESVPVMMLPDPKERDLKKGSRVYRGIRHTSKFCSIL

Block 1 — method: competition with immobilised ligand; concentration: 1 µM
Structure (SMILES): C[C@@]1(Cc2ccc(C#N)cc2)C(=O)N(c2cc(Cl)cc(Cl)c2)c2ncc(C(=O)NC3(c4nc(C5CCC5)no4)CC3)n21
| target | test | remaining binding |
| --- | --- | --- |
| Non-receptor tyrosine-protein kinase TYK2, JH2 (TYK2, Homo sapiens, UniProt P29597) | cell-free assay | 100% |
| RET (Homo sapiens, UniProt P07949) | cell-free assay | 100% |
| AXL (Homo sapiens, UniProt P30530) | cell-free assay | 100% |
| MAP4K4 (Homo sapiens, UniProt O95819) | cell-free assay | 91% |
| MAPK14 (Homo sapiens, UniProt Q16539) | cell-free assay | 100% |
| NEK9 (Homo sapiens, UniProt Q8TD19) | cell-free assay | 86% |
| Ribosomal protein S6 kinase alpha-1, C-terminal kinase domain (RPS6KA1, Homo sapiens, UniProt Q15418) | cell-free assay | 100% |
| Ribosomal protein S6 kinase alpha-5, N-terminal kinase domain (RPS6KA5, Homo sapiens, UniProt O75582) | cell-free assay | 100% |
| PIM3 (Homo sapiens, UniProt Q86V86) | cell-free assay | 100% |
| ITK (Homo sapiens, UniProt Q08881) | cell-free assay | 92% |
| Tyrosine-protein kinase JAK1, JH1 (JAK1, Homo sapiens, UniProt P23458) | cell-free assay | 100% |
| TGFBR2 (Homo sapiens, UniProt P37173) | cell-free assay | 99% |
| GRK3 (Homo sapiens, UniProt P35626) | cell-free assay | 100% |
| RET (Homo sapiens, UniProt P07949, V804L) | cell-free assay | 100% |
| Tyrosine-protein kinase ABL1, phosphorylated (ABL1, Homo sapiens, UniProt P00519, E255K) | binding | 95% |
| NIM1K (Homo sapiens, UniProt Q8IY84) | cell-free assay | 100% |
| NEK1 (Homo sapiens, UniProt Q96PY6) | cell-free assay | 48% |
| MTOR (Homo sapiens, UniProt P42345) | cell-free assay | 91% |
| ROS1 (Homo sapiens, UniProt P08922) | cell-free assay | 100% |
| MARK3 (Homo sapiens, UniProt P27448) | cell-free assay | 100% |
| TLK1 (Homo sapiens, UniProt Q9UKI8) | cell-free assay | 100% |

Block 2 — SMILES: Cn1cnc2cc3c(Nc4cccc(Br)c4)ncnc3cc21; observed: enzyme activity; action: inhibitor; concentration: 0.5 µM; baseline: control
| target | remaining activity [%] |
| --- | --- |
| TGFBR1 (Homo sapiens, UniProt P36897) | 97.6 |
| Protein kinase C beta type, isoform beta-I (PRKCB, Homo sapiens, UniProt P05771) | 100 |
| DAPK2 (Homo sapiens, UniProt Q9UIK4) | 92.5 |
| CAMK2D (Homo sapiens, UniProt Q13557) | 92.2 |
| IKBKE (Homo sapiens, UniProt Q14164) | 98.7 |
| IKBKB (Homo sapiens, UniProt O14920) | 104 |
| CAMKK2 (Homo sapiens, UniProt Q96RR4) | 99.6 |
| Tyrosine-protein kinase Lyn, isoform B (LYN, Homo sapiens, UniProt P07948) | 75.8 |
| OXSR1 (Homo sapiens, UniProt O95747) | 94.6 |
| MAP3K3 (Homo sapiens, UniProt Q99759) | 109 |
| DAPK1 (Homo sapiens, UniProt P53355) | 87.2 |
| PRKACA (Homo sapiens, UniProt P17612) | 105 |
| STK10 (Homo sapiens, UniProt O94804) | 35.8 |
| PRKCA (Homo sapiens, UniProt P17252) | 79 |
| CHEK2 (Homo sapiens, UniProt O96017) | 101 |
| Cyclin-dependent kinase 5, with p25 (CDK5, Homo sapiens, UniProt Q00535) | 88 |
| NEK2 (Homo sapiens, UniProt P51955) | 103 |
| cGMP-dependent protein kinase 1, isoform beta (PRKG1, Homo sapiens, UniProt Q13976) | 98 |
| TGFBR2 (Homo sapiens, UniProt P37173) | 98.9 |
| STK39 (Homo sapiens, UniProt Q9UEW8) | 111 |
| MAPK9 (Homo sapiens, UniProt P45984) | 92.3 |
| GRK3 (Homo sapiens, UniProt P35626) | 89.9 |

Block 3 — cell line: 1205Lu melanoma
| Compound | IC50 [µM] |
| --- | --- |
| OCCN1CCN(CCCN2c3ccccc3Sc3ccc(Cl)cc32)CC1 | 9.3 |
| CN(C)CCCN1c2ccccc2Sc2ccc(Cl)cc21 | 15 |
| COCCCC/C(=N\OCCN)c1ccc(C(F)(F)F)cc1 | 21.4 |
| OCCN1CCN(CCC=C2c3ccccc3Sc3ccc(C(F)(F)F)cc32)CC1 | 7.7 |
| CN(C)CC/C=C1/c2ccccc2Sc2ccc(Cl)cc21 | 8.9 |
| CN1CCc2c(c3ccccc3n2Cc2ccccc2)C1 | 110 |
| CCN(CC)CCCC(C)Nc1c2ccc(Cl)cc2nc2ccc(OC)cc12 (stereo not shown) | 3.8 |
| CC(NCCC(c1ccccc1)c1ccccc1)c1ccccc1 (stereo not shown) | 9.5 |
| CN(C)CCCN1c2ccccc2CCc2ccccc21 | 42.3 |
| CN(C)CCC=C1c2ccccc2C=Cc2ccccc21 | 34.6 |
| CNCCC=C1c2ccccc2CCc2ccccc21 | 13.2 |
| CC(CN1c2ccccc2Sc2ccccc21)N(C)C (stereo not shown) | 33.5 |
| COCC(=O)O[C@]1(CCN(C)CCCc2nc3ccccc3[nH]2)CCc2cc(F)ccc2[C@@H]1C(C)C | 4.9 |

Block 4 — cell line: mouse MPNST tumor cells; method: high-content nuclear imaging; item: cell number; concentration: 10 µM; time: 12 h; notes: mean of 2 replicates; baseline: plate mean; reading: higher = more cells
| Structure (SMILES) | nuclei count |
| --- | --- |
| COc1ccc(-c2ccc3cc(C(=O)O)ccc3c2)cc1C12CC3CC(CC(C3)C1)C2 | 0.622 z-score and -1.51 z-score |
| COc1ccc(/C=C/c2nc(NCCCN(C)C)c3ccccc3n2)cc1 | -6.35 z-score |
| O=C(CCBr)N1CCN(C(=O)CCBr)CC1 | -0.0875 z-score |
| CCCCNc1ncc(C(=O)NCc2ccc(-n3ccnc3)cc2)c(NC2CCC(O)CC2)n1 (stereo not shown) | 1.28 z-score |
| COc1ccc(CCN(C)CCCOc2ccc(S(=O)(=O)c3c(C(C)C)c4ccccc4n3C)cc2)cc1OC | -5.85 z-score |
| Cc1ccc(S(=O)(=O)NCc2ccccc2)cc1 | 0.59 z-score |
| CN1CCCCC1CCN1c2ccccc2Sc2ccc([S+](C)[O-])cc21 (stereo not shown) | 2.33 z-score |
| c1ccc2c(c1)SCc1c-2[nH]c2ccccc12 | -6.23 z-score |
| CNCC[C@@H](Oc1cccc2ccccc12)c1cccs1 | -4.29 z-score |
| O=C(O)C(Cc1c[nH]c2ccccc12)N1C(=O)c2ccccc2C1=O (stereo not shown) | 0.174 z-score |
| Brc1c(Br)c(Br)c2n[nH]nc2c1Br | 0.154 z-score |
